# Measured values gathered from unrelated publications.
# A part holds a random share of what one study measured. Changes are numbered by the printed parent chain.

# Series 1
# Target: Centromere-binding protein 1, full length, N-terminal tag (CBF1, Saccharomyces cerevisiae, UniProt P17106, residues 1-351)
# Sequence of UniProt P17106 (whole entry, looked up): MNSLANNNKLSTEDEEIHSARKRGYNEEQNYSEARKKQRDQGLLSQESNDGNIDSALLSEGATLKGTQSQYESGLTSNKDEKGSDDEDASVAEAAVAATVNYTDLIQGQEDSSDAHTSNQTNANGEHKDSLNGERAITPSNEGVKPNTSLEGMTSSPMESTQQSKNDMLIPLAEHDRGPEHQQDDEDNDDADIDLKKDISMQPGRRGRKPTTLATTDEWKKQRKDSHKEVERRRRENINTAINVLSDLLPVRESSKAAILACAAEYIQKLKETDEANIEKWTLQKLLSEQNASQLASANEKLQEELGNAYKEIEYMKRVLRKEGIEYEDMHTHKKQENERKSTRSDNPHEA
# Technique: protein-binding microarray
# Molecule type: double-stranded DNA, one strand shown
# Medium: in vitro
# Concentration: 0.8 µM
# Notes: whole 60-bp probe, no competitor
# Reading: higher = stronger binding
# Constant ends, left off below: … GTCTTGATTCGCTTGACGCTGCTG
Strand,fluorescence intensity
GAAGTATCACATGATAGTCACGTGCAGTGATTATAG,21200 a.u.
CTATCTACTTTCCATCACCTGGTTTTCATCGACTTC,728 a.u.
GAAATTTTTTATGAGCACGTGTTATTTATTCCTTAG,16100 a.u.
GAATAATAAAACATAAACGTGATGCTTTTACCATAG,1200 a.u.
CTATTCATAGCATATCTGGTGGATCGTCTCTATTTC,511 a.u.
GAAGTTGTCGTCAATCACATGTAAATATCATTATAG,1340 a.u.
GAAAAGTGGTAGGGTAAGCACGTGTGTGTTATTTAG,6410 a.u.
GAAAGCTTGAGGAGAGGCATGATGATGGTTCTCTAG,510 a.u.
CTAAAGGACGAGCGTGGTGGAGGAAAGGGGCGCTTC,483 a.u.
GAAGCACGGTCACTACTCACGAGGAGGCGTGCATAG,612 a.u.
CTAAGTCTGCGGTATAATCACCTGGCCTAGTGCTTC,727 a.u.
TGTACGAAGCTATGTGGTGGTATTATAGTAGTTAGG,517 a.u.
GAATTTCTTAGCGAGGACGTGCTTCTCCAGCGATAG,583 a.u.
CTAACCCTAACAATACACATGATGCAACTGGAATTC,725 a.u.
CTAACCACATCTTCAAACGTGCATATAGAATGGTTC,576 a.u.
GAATCTTGCAGACATCAGACATACTATTGTAATTAG,522 a.u.
CTAAAGCAGGATTACACCGTGATTTGATGAAATTTC,593 a.u.
GAATTACCGAATTGTAGCGTGGTGACAATGCCATAG,533 a.u.

# Series 2
# Target: RING finger protein unkempt homolog, zinc fingers 1-6, SBP tag (UNK, Homo sapiens, UniProt Q9C0B0, residues 30-357)
# Sequence of UniProt Q9C0B0 (30-357, looked up): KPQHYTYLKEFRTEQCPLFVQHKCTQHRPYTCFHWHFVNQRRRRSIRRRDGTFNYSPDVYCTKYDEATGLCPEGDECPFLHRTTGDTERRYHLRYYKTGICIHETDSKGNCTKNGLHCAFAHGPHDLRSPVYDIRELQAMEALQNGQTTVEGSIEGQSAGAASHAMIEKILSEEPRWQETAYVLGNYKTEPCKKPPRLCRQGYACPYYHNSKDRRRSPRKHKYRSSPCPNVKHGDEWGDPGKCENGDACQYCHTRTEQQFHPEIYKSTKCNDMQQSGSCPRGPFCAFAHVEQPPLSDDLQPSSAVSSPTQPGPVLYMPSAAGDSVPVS
# Technique: RNA Bind-n-Seq
# Molecule type: RNA
# Medium: in vitro
# Concentration: 100 nM
# Notes: RNA with constant flanks, vertebrate orthologous sites, ends assumed
# Reference: input RNA pool
# Reading: higher = stronger binding
# Constant ends, left off below: GGGAGUUCUACAGUCCGACGAUC … CAACAGAGGAUUGAGCAUCA
Strand,bound/input enrichment [ratio]
AAAGCCCCGAUUUUAGAUGUGAUAUUUAGGCUUUCAUUCCAUUGUUUUUGUCUUCUUGUUUAGAUACCGAUCUUUUAAAUUCUUGCAUUUUAGUAAGAAAGCUACCUUUUUAUGGAUGUU,1.06
AUUUAAAAUGUGUUUACUUAUAUUUAAUGAUCUCAUUCCUGAGUUCCUGUUUCAUUGAAGUAGCUUCCAUUUCUAUUAUUGUAGUUAUGAAUAAAUAGAAGGUUUGUGCCAGUAGACAUU,0.373
AAUAAUGAAUAGUAUUAAAGAAACAUUCUCGUCUUCCUUUACCUUUAAUCCCCUAAUACCUAGUCUACUUUUUAAAUUUUCAGACUUCACUGCUUUUUGAAUUCAUAAUUCUAAUUUUCA,2.05
GAUAUUGAAUAGUAUUAAACAUUUUUGUCUUCCUUUAUCUUUUAUCCCCUACCUGAUAUCUAGUCUACUUUUUUAAAUUUCAGACUUCACUGCUCUUUGAAUUGAUAAUUCCAAUUUUCA,1.88
GUGUUGGUGCGGAGUGCUCUGUACCAGUGCUCAUCGUCCCUUCUUCAUACCAACUGUCCUAGUUACAGGAAUAUUUUUAAAAGUUUUACAUUGCUGUAUAUUCAAAGAUUUGUUUAAUAU,0.252
GUGACUUUGGAAGUCCGCAGUGUCUCAUUGCAGAUACUUCUUAGCUUAGGACCUGGUGGCUAGGUUGGUUCUCUCCUUUCCAAUCGGAGACCUCUACCGCAAACAUGCUUCGCCAGAUCA,0.569
AGACUUAUAUUGUGGCAUAUAGUCAACACGGAAGUAGACCAGCUCUGCUGAUUGGAAAUUUAGAUUUUUUAAUUAUGUACUGGGGACAGGUUUUUGUCGCUUUACAUUGCUUCCUAGUUU,3.09
UCUAUAUAAUUCUAAUGAUACUUCCUUAUAUGACACUUUGGCUCUUCAUACAUUUAAUCGUAUUUACAAGCUAUUUUUUAUAAAUAGCAGCAUAAAUUCAAAGGAGCUUACUUGGUAUUU,0.324
AAAUUUCCCCAUUGUCGCUGAGAACCACCAAAUCUGACUUUUACAUUUGGUCUCAGAAUUUAGGUUCCUGCCCUGUUGGUUUUUUUUUUUUUUUUUUAAACAGUUUUCAAAAGUUCUUAA,1.44
GUGGCACCCACUGUGAGAGGGAGUAGGGGGAGCCCAGGAUGACCCUCAGCUGUUCCAGUUAAGUAUUUUUUCUUUUUUUAAAAUUACUGUAUUUAUUAUGACGAUGGUGACUCCCCAGUG,0.577
UCUCUGCAAUUUUAAAGACACUUCCUUAUAAGGCACUUUGGCUCUUCAUAUAUCUCAUCCUGUUUACUUACCUGUUUUCAAAAACAGCAGUAUGAACUCAGGGGACUCGCUUGGCGUGUG,0.385

# Series 3
# Target: CREB3L2, bZIP domain (human)
# Technique: DHFR protein complementation
# Medium: yeast
# Notes: single substitutions, most at no-binding floor
# Reference: wild-type JUN-FOS pair
# Reading: higher = stronger binding
# Starting sequence: JUN, bZIP domain (human); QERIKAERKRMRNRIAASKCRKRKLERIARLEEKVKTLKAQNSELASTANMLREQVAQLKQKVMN; partner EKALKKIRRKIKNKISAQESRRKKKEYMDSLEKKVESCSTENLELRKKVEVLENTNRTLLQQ
Substitution,binding fitness [natural log]
Q55D,-1.41
I28C,-1.48
Q58S,-1.5
M51N,-1.11
Q41N,-1.28
K36D,-1.38
A40Q,-1.38
E44V,-1.36
A57W,-1.35
K34R,-1.52
I28W,-1.45
Q55A,-1.3
L52Y,-1.46
E33D,-1.44
L45R,-1.53
E44N,-1.65
L45Y,-1.54

# Series 4
# Cell line: yeast with cyclin D1-Cln2 chimera
# Effect on: cell growth
# Action: binder
# Technique: competitive growth deep sequencing
# Molecule type: peptide
# Concentration: concentration not given
# Notes: peptide tiling library
# Reading: direction not given
Molecule,growth enrichment score
TLPYDLACTGGDFVLF,1.46
HPESPPRKRLKSKGSD,0.441
ASVLSKPIFCFVKD,1.55
DWDTVERQEEEAPSWD,1.73
MNQELLSVGSKRRRTG,0.469
IFNKPECGRVQRAIFQ,-0.104
TQERKQIHCLSEDELS,1.5
SNFFDVIKQLFSDEKN,-2.39

# Repeated from above (series 1):
Strand,fluorescence intensity
CTATCTACTTTCCATCACCTGGTTTTCATCGACTTC,728 a.u.
GAAATTTTTTATGAGCACGTGTTATTTATTCCTTAG,16100 a.u.
GAATAATAAAACATAAACGTGATGCTTTTACCATAG,1200 a.u.
CTATTCATAGCATATCTGGTGGATCGTCTCTATTTC,511 a.u.
GAAGTTGTCGTCAATCACATGTAAATATCATTATAG,1340 a.u.
GAAAAGTGGTAGGGTAAGCACGTGTGTGTTATTTAG,6410 a.u.
GAAAGCTTGAGGAGAGGCATGATGATGGTTCTCTAG,510 a.u.
CTAAAGGACGAGCGTGGTGGAGGAAAGGGGCGCTTC,483 a.u.
